Measurements gathered from unrelated publications.
Protocols differ between the studies behind these lines. ± marks the error that the study gave.
cas9: CRISPR-associated endonuclease Cas9/Csn1 (cas9, Streptococcus pyogenes serotype M1, UniProt Q99ZW2)
Sequence of UniProt Q9GZZ6 (whole entry, looked up): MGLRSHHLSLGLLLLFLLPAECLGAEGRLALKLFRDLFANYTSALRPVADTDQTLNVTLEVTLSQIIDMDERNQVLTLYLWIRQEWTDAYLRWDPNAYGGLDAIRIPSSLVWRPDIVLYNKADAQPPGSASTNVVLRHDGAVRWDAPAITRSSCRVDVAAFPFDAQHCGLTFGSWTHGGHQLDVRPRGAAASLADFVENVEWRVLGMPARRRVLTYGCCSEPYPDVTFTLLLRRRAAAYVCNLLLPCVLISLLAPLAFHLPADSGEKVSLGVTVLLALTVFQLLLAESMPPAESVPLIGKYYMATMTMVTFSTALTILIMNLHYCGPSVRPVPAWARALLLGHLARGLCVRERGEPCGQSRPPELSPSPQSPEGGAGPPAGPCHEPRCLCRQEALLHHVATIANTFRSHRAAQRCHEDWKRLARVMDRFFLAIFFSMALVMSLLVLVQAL
Sequence of UniProt P22303 (whole entry, looked up): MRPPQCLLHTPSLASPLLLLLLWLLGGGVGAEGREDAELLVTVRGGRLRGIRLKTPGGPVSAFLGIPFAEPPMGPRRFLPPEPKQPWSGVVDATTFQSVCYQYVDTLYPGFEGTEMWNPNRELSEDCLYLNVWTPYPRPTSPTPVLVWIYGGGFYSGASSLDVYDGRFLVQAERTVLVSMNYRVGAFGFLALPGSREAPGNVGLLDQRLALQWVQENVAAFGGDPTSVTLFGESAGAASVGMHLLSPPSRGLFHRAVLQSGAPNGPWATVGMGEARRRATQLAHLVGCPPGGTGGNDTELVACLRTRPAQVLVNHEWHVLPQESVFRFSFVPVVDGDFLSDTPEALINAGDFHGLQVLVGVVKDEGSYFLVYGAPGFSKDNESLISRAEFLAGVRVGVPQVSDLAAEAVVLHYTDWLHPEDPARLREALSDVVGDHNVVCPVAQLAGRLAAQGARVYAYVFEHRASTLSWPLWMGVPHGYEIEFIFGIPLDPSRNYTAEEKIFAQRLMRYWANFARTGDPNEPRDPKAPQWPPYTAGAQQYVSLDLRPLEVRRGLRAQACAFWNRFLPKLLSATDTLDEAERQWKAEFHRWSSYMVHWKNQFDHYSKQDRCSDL
Sequence of UniProt Q9NZ01 (whole entry, looked up): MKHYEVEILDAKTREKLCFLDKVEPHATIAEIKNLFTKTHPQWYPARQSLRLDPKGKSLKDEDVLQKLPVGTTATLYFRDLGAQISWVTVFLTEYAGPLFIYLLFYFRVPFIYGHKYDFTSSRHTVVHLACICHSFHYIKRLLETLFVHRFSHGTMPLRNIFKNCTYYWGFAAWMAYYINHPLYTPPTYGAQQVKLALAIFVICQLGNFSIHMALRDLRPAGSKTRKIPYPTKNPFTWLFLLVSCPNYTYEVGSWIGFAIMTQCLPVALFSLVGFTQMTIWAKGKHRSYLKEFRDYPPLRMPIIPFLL
Sequence of UniProt Q9UGM1 (whole entry, looked up): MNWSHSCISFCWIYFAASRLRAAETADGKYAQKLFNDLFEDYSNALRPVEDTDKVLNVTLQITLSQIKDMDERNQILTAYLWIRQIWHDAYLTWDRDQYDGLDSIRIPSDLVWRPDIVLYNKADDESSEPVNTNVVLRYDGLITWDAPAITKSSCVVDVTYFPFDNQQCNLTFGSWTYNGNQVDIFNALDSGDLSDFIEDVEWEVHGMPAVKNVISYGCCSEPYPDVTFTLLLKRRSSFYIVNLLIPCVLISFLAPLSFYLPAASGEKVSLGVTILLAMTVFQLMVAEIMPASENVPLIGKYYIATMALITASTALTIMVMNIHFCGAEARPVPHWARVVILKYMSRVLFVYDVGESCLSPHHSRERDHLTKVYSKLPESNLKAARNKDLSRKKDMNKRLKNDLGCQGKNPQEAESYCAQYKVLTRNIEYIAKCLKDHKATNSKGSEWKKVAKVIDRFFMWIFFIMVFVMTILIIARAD
Sequence of UniProt P35354 (whole entry, looked up): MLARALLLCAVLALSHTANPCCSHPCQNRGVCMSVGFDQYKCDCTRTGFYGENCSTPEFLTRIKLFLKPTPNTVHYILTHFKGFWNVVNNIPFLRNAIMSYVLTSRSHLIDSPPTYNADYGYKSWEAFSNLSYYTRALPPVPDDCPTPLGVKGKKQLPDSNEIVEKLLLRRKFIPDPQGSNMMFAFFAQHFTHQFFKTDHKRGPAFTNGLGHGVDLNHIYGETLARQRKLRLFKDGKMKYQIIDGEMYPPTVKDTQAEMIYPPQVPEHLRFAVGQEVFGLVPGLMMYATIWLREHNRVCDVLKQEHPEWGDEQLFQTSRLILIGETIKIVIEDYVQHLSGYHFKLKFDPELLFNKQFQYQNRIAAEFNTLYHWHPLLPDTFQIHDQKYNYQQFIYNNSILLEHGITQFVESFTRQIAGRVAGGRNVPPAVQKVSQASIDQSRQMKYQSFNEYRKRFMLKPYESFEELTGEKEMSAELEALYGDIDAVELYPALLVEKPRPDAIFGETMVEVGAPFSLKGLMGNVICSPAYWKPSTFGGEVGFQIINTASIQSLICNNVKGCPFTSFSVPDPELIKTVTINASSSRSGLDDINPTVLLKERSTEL
Sequence of UniProt Q9UHD2 (whole entry, looked up): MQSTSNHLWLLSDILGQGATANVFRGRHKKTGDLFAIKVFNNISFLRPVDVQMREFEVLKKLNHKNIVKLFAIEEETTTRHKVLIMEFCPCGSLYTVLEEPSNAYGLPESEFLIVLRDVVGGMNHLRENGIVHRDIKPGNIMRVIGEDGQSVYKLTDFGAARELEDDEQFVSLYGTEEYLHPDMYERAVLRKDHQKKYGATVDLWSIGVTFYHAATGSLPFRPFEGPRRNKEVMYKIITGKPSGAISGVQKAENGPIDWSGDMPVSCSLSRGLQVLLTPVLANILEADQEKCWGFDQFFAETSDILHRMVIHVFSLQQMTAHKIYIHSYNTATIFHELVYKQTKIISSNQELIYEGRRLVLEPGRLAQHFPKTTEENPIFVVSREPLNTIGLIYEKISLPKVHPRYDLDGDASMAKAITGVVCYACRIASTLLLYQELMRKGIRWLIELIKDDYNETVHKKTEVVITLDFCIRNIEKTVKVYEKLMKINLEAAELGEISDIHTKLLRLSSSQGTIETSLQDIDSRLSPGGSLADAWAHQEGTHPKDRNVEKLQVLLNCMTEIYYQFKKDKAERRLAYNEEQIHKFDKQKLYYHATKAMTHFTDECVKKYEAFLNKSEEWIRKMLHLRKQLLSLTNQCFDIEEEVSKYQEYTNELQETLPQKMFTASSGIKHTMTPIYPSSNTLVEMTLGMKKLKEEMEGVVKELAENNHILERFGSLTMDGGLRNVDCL
Sequence of UniProt P36544 (whole entry, looked up): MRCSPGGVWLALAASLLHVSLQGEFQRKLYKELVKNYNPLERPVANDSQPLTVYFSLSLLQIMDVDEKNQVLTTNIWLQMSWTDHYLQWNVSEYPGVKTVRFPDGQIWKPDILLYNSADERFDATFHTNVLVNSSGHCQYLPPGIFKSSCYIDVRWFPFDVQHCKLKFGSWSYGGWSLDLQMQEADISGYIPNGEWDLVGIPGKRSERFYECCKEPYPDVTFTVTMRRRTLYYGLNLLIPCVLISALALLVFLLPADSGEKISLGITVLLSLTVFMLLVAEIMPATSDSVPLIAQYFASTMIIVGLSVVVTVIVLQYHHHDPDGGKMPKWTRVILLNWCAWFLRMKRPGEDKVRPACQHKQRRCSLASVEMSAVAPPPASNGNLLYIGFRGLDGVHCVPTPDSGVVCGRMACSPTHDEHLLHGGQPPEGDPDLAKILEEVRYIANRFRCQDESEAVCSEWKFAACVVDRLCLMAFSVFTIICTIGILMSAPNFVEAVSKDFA
Sequence of UniProt P23946 (whole entry, looked up): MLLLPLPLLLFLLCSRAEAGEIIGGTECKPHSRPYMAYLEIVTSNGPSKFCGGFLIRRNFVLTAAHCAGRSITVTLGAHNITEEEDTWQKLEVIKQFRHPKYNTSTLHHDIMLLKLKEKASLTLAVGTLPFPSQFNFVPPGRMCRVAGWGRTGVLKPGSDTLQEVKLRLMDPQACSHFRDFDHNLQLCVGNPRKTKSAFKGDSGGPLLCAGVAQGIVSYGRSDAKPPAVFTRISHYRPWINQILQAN
Sequence of UniProt P47898 (whole entry, looked up): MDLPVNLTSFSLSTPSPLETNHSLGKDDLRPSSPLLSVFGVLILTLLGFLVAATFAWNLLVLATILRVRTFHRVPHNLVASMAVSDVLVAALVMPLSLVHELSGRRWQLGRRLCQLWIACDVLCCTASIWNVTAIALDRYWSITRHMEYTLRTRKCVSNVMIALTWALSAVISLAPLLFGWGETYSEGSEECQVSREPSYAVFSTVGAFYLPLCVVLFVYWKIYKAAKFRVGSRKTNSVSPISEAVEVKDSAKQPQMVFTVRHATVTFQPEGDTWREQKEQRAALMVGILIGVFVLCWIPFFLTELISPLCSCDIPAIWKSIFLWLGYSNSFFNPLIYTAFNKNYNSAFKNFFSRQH

With `COc1ncccc1-c1cnn2ccc(N3CCN(C(=O)OC(C)C)CC3)nc12` the IC50 was 24 µM (Neuronal acetylcholine receptor subunit alpha-7 (CHRNA7, Homo sapiens, UniProt P36544); liability screen).
`Cc1cnc(CNC(=O)c2c(=O)c3ccc(N4CCCN(C)CC4)nc3n3c2sc2ccccc23)cn1` gave an IC50 of 20 to 50 µM (cas9; circular plasmid substrate; Streptococcus pyogenes).
The IC50 of `CCC[C@H](NC(=O)[C@@H]1[C@H]2CCC[C@H]2CN1C(=O)[C@@H](NC(=O)[C@@H](NC(=O)c1cnccn1)C1CCCCC1)C(C)(C)C)C(=O)C(=O)NC1CC1` is reported as 0.725 µM (Chymase (CMA1, Homo sapiens, UniProt P23946); enzyme activity, inhibitor; with: FP-biotin 1 µM).
`CC(C)C[C@H](NC(=O)[C@H](CCC(N)=O)NC(=O)[C@H](Cc1ccccc1)NC(=O)[C@H](C)NC(=O)[C@H](CCCCN)NC(=O)[C@H](CC(=O)O)NC(=O)[C@H](CCC(=O)O)NC(=O)[C@H](CC(C)C)NC(=O)[C@@H](N)CO)C(=O)O` gave an IC50 of > 70 µM (HLA class I histocompatibility antigen, B alpha chain, allele B*18:01 (Homo sapiens, UniProt P01889); peptide-MHC binding, radioligand competition binding).
With `O=C(Nc1ccccc1-c1cn2c(CN3CCNCC3)csc2n1)c1cnc2ccccc2n1` the IC50 was 20 to 50 µM (cas9; linear substrate; Streptococcus pyogenes).
The tissue uptake of `CC[C@H](C)[C@H](NC(=O)[C@H](Cc1ccccc1)NC(=O)[C@H](CCC(=O)O)NC(=O)[C@H](CCCNC(=N)N)NC(=O)[C@H](C)NC(=O)[C@H](C)NC(=O)[C@H](CCC(N)=O)NC(=O)[C@H](CCC(=O)O)NC(=O)[C@H](CCC(=O)O)NC(=O)[C@H](CC(C)C)NC(=O)[C@H](Cc1ccc(O)cc1)NC(=O)[C@H](CO)NC(=O)[C@H](CO)NC(=O)[C@@H](NC(=O)[C@H](CC(=O)O)NC(=O)[C@H](CO)NC(=O)[C@@H](NC(=O)[C@H](Cc1ccccc1)NC(=O)[C@@H](NC(=O)CNC(=O)[C@H](CCC(=O)O)NC(=O)[C@H](C)NC(=O)CCc1c[nH]cn1)[C@@H](C)O)[C@@H](C)O)C(C)C)C(=O)N[C@@H](C)C(=O)N[C@@H](Cc1c[nH]c2ccccc12)C(=O)N[C@@H](CC(C)C)C(=O)N[C@H](C(=O)N[C@@H](CCCNC(=N)N)C(=O)NCC(=O)N[C@@H](CCCNC(=N)N)C(=O)N[C@@H](CCCCNC(=O)COCCOCCNC(=O)COCCOCCNC(=O)CC[C@H](NC(=O)CCCCCCCCCCCCCCCCC(=O)O)C(=O)O)C(=O)NCC(=O)NCC(=O)N[C@@H](CO)C(=O)N[C@@H](CCCCNc1c(NCCCCCN(O)C(=O)CCC(=O)NCCCCCN(O)C(=O)CCC(=O)NCCCCCN(O)C(C)=O)c(=O)c1=O)C(=O)O)C(C)C` [zirconium-89 labelled] is reported as 0.15 %ID/g (ex vivo gamma counting; rat, stomach; subcutaneous, 3 nmol/kg, 72 h, with: [89Zr]-labelled peptide).
`C[C@]1(CO)Cc2ncn(-c3ccc(C#N)c(Cl)c3)c2C(=O)O1` gave a tmax of 1 h (human, plasma; 10 mg single dose, median).
For `COc1cc(CCC[P+](c2ccccc2)(c2ccccc2)c2ccccc2)c(OC)c2c1OCO2.[I-]`, the TGI was -5.23 log M (MDA-MB-435; SRB).
For `CCOc1ccc2nc3cc(N)ccc3c(N)c2c1`, the IC50 was 20 to 50 µM (cas9; linear substrate; Streptococcus pyogenes).
`COc1cc(OC)c(OC)cc1C=O` has an IC50 of 510 µM (Prostaglandin G/H synthase 2 (PTGS2, Homo sapiens, UniProt P35354); inhibitor).
For `COc1cc(Nc2ncc(F)c(Nc3ccc4c(n3)NC(=O)C(C)(C)O4)n2)cc(OC)c1OC`, the IC50 was > 10 µM (5-hydroxytryptamine receptor 5A (HTR5A, Homo sapiens, UniProt P47898)).
With `Clc1ccc2c(c1)C(N1CCNCC1)=Nc1ccccc1O2` the IC50 was 0.46 ± 0.11 µM (Neuronal acetylcholine receptor; alpha9/alpha10 (Homo sapiens, UniProt Q9GZZ6+Q9UGM1); inhibitor).
For `CC[C@H](C)[C@@H]1NC(=O)[C@@H]2CCCN2C(=O)[C@H](CC(C)C)NC(=O)[C@H](CC(C)C)NC(=O)CNC(=O)[C@@H](NC(=O)[C@@H](NC(=O)[C@H](CC(=O)O)NC(=O)CNC(=O)[C@@H](NC(=O)[C@H](C)NC(=O)CNC(=O)[C@H](CCCCN)NC(=O)[C@H](CC(C)C)NC(=O)[C@H](CC(C)C)NC(=O)[C@H](CCCCN)NC(=O)CNC(=O)[C@@H](NC(=O)[C@@H](N)CC(C)C)C(C)C)C(C)C)C(C)C)CSSC[C@@H](C(=O)O)NC1=O`, “log2 fold change” read -2.89 (RNA-seq, measured: Themis2; mouse, traumatic brain injury model, frontal cortex and hippocampus; dose not given; reference: TBI alone).
`COc1cc2c(Oc3ccc4[nH]c(C)cc4c3F)ccnc2cc1OCC1(N)CC1` — result for “incidence of adverse event”: 13.3% (measured: grade 3 hand-foot syndrome; paediatric high-risk refractory sarcoma; 8 mg).
The IC50 of `COc1ccc(S(=O)(=O)Oc2ccc3c(c2)Oc2nc4c(c(N)c2C3c2ccccc2OC)CCCC4)cc1` (stereo not shown) is reported as 5.17 µM (Acetylcholinesterase (ACHE, Homo sapiens, UniProt P22303); enzyme activity, inhibitor).
`CC(=O)N1C[C@H](CCN2CC=C(c3c[nH]c4cc(Cl)ccc34)CC2)c2ccccc21` has an IC50 of 1.81 µM (Sodium-dependent serotonin transporter (SLC6A4, Homo sapiens, UniProt P31645); inhibitor).
With `CSCC[C@H](NC(=O)[C@H](Cc1ccc(O)cc1)NC(=O)[C@H](CC(C)C)NC(=O)[C@H](CCSC)NC(=O)[C@H](CO)NC(=O)CNC(=O)[C@H](CC(C)C)NC(=O)[C@H](CC(C)C)NC(=O)[C@@H](N)CCSC)C(=O)O` the IC50 was > 70 µM (HLA class I histocompatibility antigen, B alpha chain (Homo sapiens, UniProt P01889); peptide-MHC binding, radioligand competition binding).
For `CCN1CCN(Cc2ccc(Nc3nc4ccc(Oc5ccnc(NC(C)=O)c5)cc4n3C)cc2C(F)(F)F)CC1`, the IC50 was 1 ± 0.3 µM (Protein kinase 6 (Plasmodium falciparum, UniProt Q8IDW1); enzyme activity, inhibitor, ADP-Glo; with: ATP 100 µM).
For `CO[C@H]1C[C@@H]2CC[C@@H](C)[C@@](O)(O2)C(=O)C(=O)N2CCCC[C@H]2C(=O)O[C@H]([C@H](C)C[C@@H]2CC[C@@H](OC(=O)NCCOCCOCCOCCOCCOCCOCCOCCOCCC(=O)N3CCc4cc(Cn5nc(-c6ccc7oc(N)nc7c6)c6c(N)ncnc65)ccc4C3)[C@H](OC)C2)C[C@@H](O)[C@H](C)/C=C(\C)[C@@H](O)[C@@H](OC)C(=O)[C@H](C)C[C@H](C)/C=C/C=C/C=C/1C`, the vomiting incidence was 0% (patients with advanced solid tumours; intravenous, 8 mg weekly, grade 3 or higher).
`C[C@H]1CN(c2n[nH]c3nc(N[C@H]4CC[C@H](NS(=O)(=O)CCC(F)(F)F)CC4)ncc23)CCO1` has an IC50 of ≥ 20 µM (Very-long-chain enoyl-CoA reductase (Homo sapiens, UniProt Q9NZ01); biochemical).
`COc1ccc(N2C(=O)N(c3c(C)cccc3Cl)Cc3cnc(Nc4ccc(C5CCN(C)CC5)cc4OC)nc32)nc1` has an inhibition of 6% (Serine/threonine-protein kinase TBK1 (TBK1, Homo sapiens, UniProt Q9UHD2); kinase activity; 0.5 µM).
For `CNC(C)Cc1ccc2nonc2c1` (stereo not shown), the IC50 was 17.4 ± 7.8 µM (Solute carrier family 22 member 1 (SLC22A1, Homo sapiens, UniProt O15245)).

Repeated from above:
For `CC[C@H](C)[C@@H]1NC(=O)[C@@H]2CCCN2C(=O)[C@H](CC(C)C)NC(=O)[C@H](CC(C)C)NC(=O)CNC(=O)[C@@H](NC(=O)[C@@H](NC(=O)[C@H](CC(=O)O)NC(=O)CNC(=O)[C@@H](NC(=O)[C@H](C)NC(=O)CNC(=O)[C@H](CCCCN)NC(=O)[C@H](CC(C)C)NC(=O)[C@H](CC(C)C)NC(=O)[C@H](CCCCN)NC(=O)CNC(=O)[C@@H](NC(=O)[C@@H](N)CC(C)C)C(C)C)C(C)C)C(C)C)CSSC[C@@H](C(=O)O)NC1=O`, “log2 fold change” read -2.89 (RNA-seq, measured: Themis2; mouse, traumatic brain injury model, frontal cortex and hippocampus; dose not given; reference: TBI alone).
